Results of several laboratories.
Protocols differ between the studies behind these lines.
Technique: steady-state kinetics
B1: SULT2A1 (Homo sapiens, UniProt Q06520); chain MSDDFLWFEGIAFPTMGFRSETLRKVRDEFVIRDEDVIILTYPKSGTNWLAEILCLMHSKGDAKWIQSVPIWERSPWVESEIGYTALSETESPRLFSSHLPIQLFPKSFFSSKAKVIYLMRNPRDVLVSGYFFWKNMKFIKKPKSWEEYFEWFCQGTVLYGSWFDHIHGWMPMREEKNFLLLSYEELKQDTGRTIEKICQFLGKTLEPEELNLILKNSSFQSMKENKMSNYSLLSVDYVVDKAQLLRKGVSGDWKNHFTVAQAEDFDKLFQEKMADLPRELFPWE
B2: UGT3A2 Y74N (Homo sapiens, UniProt Q3SY77); chain AKILTISTVGGSHYLLMDRVSQILQDHGHNVTMLNHKRGPFMPDFKKEEKSNQVISWLAPEDHQREFKKSFDFFLEETLGGRGKFENLLNVLEYLALQCSHFLNRKDIMDSLKNENFDMVIVETFDYCPFLIAEKLGKPFVAILSTSFGSLEFGLPIPLSYVPVFRSLLTDHMDFWGRVKNFLMFFSFCRRQQHMQSTFDNTIKEHFTEGSRPVLSHLLLKAELWFINSDFAFDFARPLLPNTVYVGGLMEKPIKPVPQDLENFIAKFGDSGFVLVTLGSMVNTCQNPEIFKEMNNAFAHLPQGVIWKCQCSHWPKDVHLAANVKIVDWLPQSDLLAHPSIRLFVTHGGQNSIMEAIQHGVPMVGIPLFGDQPENMVRVEAKKFGVSIQLKKLKAETLALKMKQIMEDKRYKSAAVAASVILRSHPLSPTQRLVGWIDHVLQTGGATHLKPYVFQQPWHEQYLLDVFVFLLGLTLGTLWLCGKLLGMAVWWLRGARKVKET
B3: enzyme (Brachypodium distachyon, UniProt I1HY48); chain MGSIASEERTVTGWAARDADGHLSPYTYTLRKTGPEDVLVKVLYCGICHTDIHQAKNHLGASKYPMVPGHEVVGEVVEVGGEVSKYSAGDVVGVGVIVGCCRECRPCKASVEQYCNKRIWSYNDVYTDGRPTQGGFSSAMVVDQKFVVRIPAGLAPEQAAPLLCAGVTVYSPLKHFGLMSPGLRGGILGLGGVGHMGVKVAKSMGHHVTVISSSGKKRAEAMDDLGADAYLVSSDADQMAAAADSLDYVIDTVPVKHPLEPYLSLLKMDGKLVLMGVIGEPLSFVSPMVMLGRKSITGSFIGSMEETEEVLKFCVEKGLTSQIEVVKMDYLNEALERLERNDVRYRFVVDVAGSKIEDAA
B4: enzyme R228K (Arabidopsis thaliana, UniProt O82390); chain MNARALLCSSNIHSLYTSNRPPEKTSSSRSLRNLKPSPKSLRVWIYPRNRSSVFRVLVRSSDKSESSNSYYVEGDKVSGNNDVVSDSPSSIVLPWWEEFPKRWVIVLLCFSAFLLCNMDRVNMSIAILPMSAEYGWNPATVGLIQSSFFWGYLLTQIAGGIWADTVGGKRVLGFGVIWWSIATILTPVAAKLGLPYLLVVRAFMGVGEGVAMPAMNNILSKWVPVQEKSRSLALVYSGMYLGSVTGLAFSPFLIHQFGWPSVFYSFGSLGTVWLTLWLTKAESSPLEDPTLLPEERKLIADNCASKEPVKSIPWRLILSKPPVWALISCHFCHNWGTFILLTWMPTYYHQVLKFNLMESGLLSVFPWMTMAISANAGGWIADTLVSRGFSVTNVRKIMQTIGFLGPAFFLTQLKHIDSPTMAVLCMACSQGTDAFSQSGLYSNHQDIAPRYSGVLLGLSNTAGVLAGVLGTAATGHILQHGSWDDVFTISVGLYLVGTVIWNLFSTGEKIID
B5: FMO3 E158K/E308G (Homo sapiens, UniProt P31513); chain GKKVAIIGAGVSGLASIRSCLEEGLEPTCFEKSNDIGGLWKFSDHAEEGRASIYKSVFSNSSKEMMCFPDFPFPDDFPNFMHNSKIQEYIIAFAKEKNLLKYIQFKTFVSSVNKHPDFATTGQWDVTTERDGKKESAVFDAVMVCSGHHVYPNLPKKSFPGLNHFKGKCFHSRDYKEPGVFNGKRVLVVGLGNSGCDIATELSRTAEQVMISSRSGSWVMSRVWDNGYPWDMLLVTRFGTFLKNNLPTAISDWLYVKQMNARFKHENYGLMPLNGVLRKEPVFNDELPASILCGIVSVKPNVKEFTGTSAIFEDGTIFEGIDCVIFATGYSFAYPFLDESIIKSRNNEIILFKGVFPPLLEKSTIAVIGFVQSLGAAIPTVDLQSRWAAQVIKGTCTLPSMEDMMNDINEKMEKKRKWFGKSETIQTDYIVYMDELSSFIGAKPNIPWLFLTDPKLAMEVYFGPCSPYQFRLVGPGQWPGARNAILTQWDRSLKPMQTRVVGRLQKPCFFFHWLKLFAIPILLIAVFLVLT
B6: protein (Adiantum capillus-veneris, UniProt A0A4Y6I289); chain MTDAVENKQVEFGALEVEGIKFAPSVAALGSTKQLVLGGAGFRGLEISGNLVKFTAIGIYVDEAIIPHLSPKLHGKSIEELCNNELLFEEVLAAPFEKLVRVVFLLPLTGPQYSEKVVERMGLLPNPGIKEESTKQFLEIFKPENFPPRTSLICSFTEEALKVAFMKTDDFPEDADAVIEDKWLARAFLASIIGKDGVSPLAKLSFAERMSRCL
B7: COMT (Homo sapiens, UniProt P21964); chain MPEAPPLLLAAVLLGLVLLVVLLLLLRHWGWGLCLIGWNEFILQPIHNLLMGDTKEQRILNHVLQHAEPGNAQSVLEAIDTYCEQKEWAMNVGDKKGKIVDAVIQEHQPSVLLELGAYCGYSAVRMARLLSPGARLITIEINPDCAAITQRMVDFAGVKDKVTLVVGASQDIIPQLKKKYDVDTLDMVFLDHWKDRYLPDTLLLEECGLLRKGTVLLADNVICPGAPDFLAHVRGSSCFECTHYQSFLEYREVVDGLEKAIYKGPGSEAGP
B8: HCT R356D (Coleus scutellarioides, UniProt E8ZAP2); chain MKIHVRDSTLVRPSAATPAVSLWNSNVDLVVPNFHTPSVYFYRPSGADNFFDTAVMKAALGRALVSFYPMAGRLKRDEDGRVEIDCNAEGVLFVEAESDGTVDDYGDFAPSLELRRLIPAVDYSQGISAYPLLVLQVTFFKCGGVSLGVGMQHHAADGFSGLHFINTWSDMARGLDITLPPFIDRTLLSARDPPQPQFKHVEYQPPPAMKTYEPAETVVSIFKLTKDQLTTLKAKSKEDGNTTTYSSYEMLSGHVWRCTCLARGLPEEQETKLYIATDGRSRLQPQLPPGYFGNVIFTATPLAVAGDLGSKPVWYAASKIHDALARMDNDYLRSALDFLELQPDLKALVRGAHTFDCPNLGITSWVRLPIHDADFGWGRPIFMGPGGIAYEGLSFVLPSPTNDGSLSVAISLQAEHMKLFEKLLYQI
B9: enzyme (Candida albicans, UniProt A0A1D8PHX1); chain MISIIQNGISQLSSVSGLDEANLKILICTLLSFPFGIIFKRLPDHDYTLKNIYNVAVSCFYVFGICDLRFGISTLLISATGSYFITRYVRTKSMPWINFLFLMIHMAYSHFHLQFFKEYDPKSIDITGAQMILVMKLSAFGWNIHDGKQPRSTLNDFNKARAITKHPNVLPYIGYVFFYASLLTGPAFDYADYDKFIHGTLFDDVPQDKRPGKNKRRIPRSGVQAFKKFSLGFFWAFLLLQSDKFVTMEYMFSPEFVQYHGLFYRIIYMWILGFTFRLKYYTIWTIAEGACILCGIGYNGVDPETGEFKWNRVQNIDPWSFETGQNVHACLEAWNQNTNIWLKNYVYLRVAKPGKKPGFKSTIFTFTTSAFWHGTRPGYYLTFVVGALMQTVGKYYRRNFRPIFLEADGKTPKPTKIVYDFVCWVNTQLAFGFFVQPFVILGFTKSLECWATVYYWLLWVIAISFFAFSGPFAKSVSKFFKSLQPSYREQQRKSREDKYKLNNEEASIVEQAVGAKLGQDYDIPALGLPPFDVFTDFDQTEVDHDIQHLRKAWTSFRGRRGSITENDFDGLKDAYNNFTNEINDIFNTKKEEFKKEKLNKQN
B10: enzyme C48S (Schizosaccharomyces pombe, UniProt Q9Y7P0); chain MFTGLVEAIGVVKDVQGTIDNGFAMKIEAPQILDDCHTGDSIAVNGTSLTVTDFDRYHFTVGIAPESLRLTNLGQCKAGDPVNLERAVLSSTRMGGHFVQGHVDTVAEIVEKKQDGEAIDFTFRPRDPFVLKYIVYKGYIALDGTSLTITHVDDSTFSIMMISYTQSKVIMAKKNVGDLVNVEVDQIGKYTEKLVEAHIADWIKKTQA
B11: ADA (Homo sapiens, UniProt P00813); chain MAQTPAFDKPKVELHVHLDGSIKPETILYYGRRRGIALPANTAEGLLNVIGMDKPLTLPDFLAKFDYYMPAIAGCREAIKRIAYEFVEMKAKEGVVYVEVRYSPHLLANSKVEPIPWNQAEGDLTPDEVVALVGQGLQEGERDFGVKARSILCCMRHQPNWSPKVVELCKKYQQQTVVAIDLAGDETIPGSSLLPGHVQAYQEAVKSGIHRTVHAGEVGSAEVVKEAVDILKTERLGHGYHTLEDQALYNRLRQENMHFEICPWSSYLTGAWKPDTEHAVIRLKNDQANYSLNTDDPLIFKSTLDTDYQMTKRDMGFTEEEFKRLNINAAKSSFLPEDEKRELLDLLYKAYGMPPSASAGQNL
Sequence of UniProt H6U1I8 (whole entry, looked up): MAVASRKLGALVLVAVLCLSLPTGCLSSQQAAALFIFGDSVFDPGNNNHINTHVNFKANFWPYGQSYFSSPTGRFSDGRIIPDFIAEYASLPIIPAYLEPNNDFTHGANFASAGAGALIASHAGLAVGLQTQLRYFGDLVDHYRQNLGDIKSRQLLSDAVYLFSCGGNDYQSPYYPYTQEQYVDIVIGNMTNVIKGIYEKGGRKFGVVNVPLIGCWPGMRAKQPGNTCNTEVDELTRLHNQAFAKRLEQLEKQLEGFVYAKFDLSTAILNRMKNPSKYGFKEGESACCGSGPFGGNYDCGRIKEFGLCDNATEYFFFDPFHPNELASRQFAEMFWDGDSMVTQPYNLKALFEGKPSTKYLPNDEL
Sequence of UniProt P09950 (whole entry, unmodified, looked up): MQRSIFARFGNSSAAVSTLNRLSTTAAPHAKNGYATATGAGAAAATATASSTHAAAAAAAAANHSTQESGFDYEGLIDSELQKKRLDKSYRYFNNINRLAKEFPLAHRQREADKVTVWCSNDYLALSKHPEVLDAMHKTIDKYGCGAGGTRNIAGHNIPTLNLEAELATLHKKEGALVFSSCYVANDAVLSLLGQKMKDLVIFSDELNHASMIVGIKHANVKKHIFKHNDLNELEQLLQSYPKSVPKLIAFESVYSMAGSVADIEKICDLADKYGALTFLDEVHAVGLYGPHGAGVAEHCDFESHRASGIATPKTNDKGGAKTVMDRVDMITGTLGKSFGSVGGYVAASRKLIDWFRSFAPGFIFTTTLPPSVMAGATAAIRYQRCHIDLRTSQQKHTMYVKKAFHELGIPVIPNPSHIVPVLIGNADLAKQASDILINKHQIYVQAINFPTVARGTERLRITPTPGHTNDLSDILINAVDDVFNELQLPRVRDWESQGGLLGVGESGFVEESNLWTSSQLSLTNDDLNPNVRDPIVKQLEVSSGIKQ
Sequence of UniProt O60656 (whole entry, looked up): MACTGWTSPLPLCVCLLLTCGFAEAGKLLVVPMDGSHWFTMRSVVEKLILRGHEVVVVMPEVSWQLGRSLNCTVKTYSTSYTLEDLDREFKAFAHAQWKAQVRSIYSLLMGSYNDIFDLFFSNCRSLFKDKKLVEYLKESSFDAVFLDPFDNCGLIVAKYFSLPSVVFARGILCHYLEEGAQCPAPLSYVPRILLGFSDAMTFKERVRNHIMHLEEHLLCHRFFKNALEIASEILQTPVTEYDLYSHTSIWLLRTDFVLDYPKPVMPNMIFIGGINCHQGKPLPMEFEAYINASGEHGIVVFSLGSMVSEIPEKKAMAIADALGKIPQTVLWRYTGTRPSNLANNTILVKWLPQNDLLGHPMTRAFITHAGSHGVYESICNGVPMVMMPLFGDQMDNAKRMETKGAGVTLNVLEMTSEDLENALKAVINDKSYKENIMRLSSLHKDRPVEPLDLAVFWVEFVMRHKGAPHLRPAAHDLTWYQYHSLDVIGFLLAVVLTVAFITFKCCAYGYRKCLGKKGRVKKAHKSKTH
Sequence of UniProt P10632 (whole entry, looked up): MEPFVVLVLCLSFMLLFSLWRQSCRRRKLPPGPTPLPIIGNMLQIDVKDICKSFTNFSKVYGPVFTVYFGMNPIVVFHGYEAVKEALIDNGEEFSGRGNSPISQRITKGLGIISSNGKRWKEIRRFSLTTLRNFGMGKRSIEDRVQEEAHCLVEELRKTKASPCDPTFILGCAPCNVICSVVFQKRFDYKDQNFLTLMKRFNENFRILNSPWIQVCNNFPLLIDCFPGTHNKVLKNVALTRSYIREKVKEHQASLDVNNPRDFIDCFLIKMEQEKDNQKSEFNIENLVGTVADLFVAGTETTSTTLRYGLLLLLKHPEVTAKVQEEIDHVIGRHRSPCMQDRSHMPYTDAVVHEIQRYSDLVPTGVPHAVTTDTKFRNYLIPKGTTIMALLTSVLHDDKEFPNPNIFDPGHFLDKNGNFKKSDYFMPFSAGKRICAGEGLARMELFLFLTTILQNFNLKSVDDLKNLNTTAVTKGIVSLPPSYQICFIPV

With `B1 (SULT2A1)` the Vmax was 0.0267 µmol/min/mg (C[C@H](CCCC(CO)CO)[C@H]1CC[C@H]2[C@@H]3[C@H](O)C[C@H]4C[C@H](O)CC[C@]4(C)[C@H]3C[C@H](O)[C@]12C; pH 7, 37 °C, substrate inhibition, together with: PAPS 14 µM).
`HEM1 (Saccharomyces cerevisiae, UniProt P09950)` gave a Vmax of 0.087 µmol/min/mg (CC(C)(COP(=O)(O)OP(=O)(O)OC[C@H]1O[C@@H](n2cnc3c(N)ncnc32)[C@H](O)[C@@H]1OP(=O)(O)O)[C@@H](O)C(=O)NCCC(=O)NCCSC(=O)CCC(=O)O; pH 7.4, 30 °C).
`B2 (UGT3A2 Y74N)` has a Vmax of 4.3e-05 µmol/min/mg (O=c1ccn([C@@H]2O[C@H](CO[P@@](=O)(O)O[P@@](=O)(O)O[C@H]3O[C@H](CO)[C@@H](O)[C@H](O)[C@H]3O)[C@@H](O)[C@H]2O)c(=O)[nH]1; pH 7.4, 37 °C, not purified, together with: 1-OH-pyrene 16 µM, MgCl2 10 mM, alamethicin).
`B3 (enzyme)` has a Vmax of 29.2 µmol/min/mg (NC(=O)C1=CN([C@@H]2O[C@H](COP(=O)(O)OP(=O)(O)OC[C@H]3O[C@@H](n4cnc5c(N)ncnc54)[C@H](OP(=O)(O)O)[C@@H]3O)[C@@H](O)[C@H]2O)C=CC1; pH 6.25, 23 °C, cofactor varied).
For `B4 (enzyme R228K)`, the Vmax was 0.00457 µmol/min/mg (O=P(O)(O)O; pH 6.5, 25 °C, apparent, not purified).
With `B5 (FMO3 E158K/E308G)` the Vmax was 3.16e-05 µmol/min/mg (CN1CCC[C@H]1c1cccnc1; HEK293 microsomes; 37 °C, not purified, together with: NADPH regenerating system).
With `B6 (protein)` the Vmax was 214 µmol/min/mg (O=C(/C=C/c1ccc(O)cc1)c1c(O)cc(O)cc1O).
With `enzyme (Tanacetum cinerariifolium, UniProt H6U1I8)` the Vmax was 0.0894 µmol/min/mg (C#CCC1=C(C)[C@@H](O)CC1=O; pH 7.5, 25 °C).
The Vmax of `UGT1A9 (Homo sapiens, UniProt O60656)` is reported as 0.00208 µmol/min/mg (COc1ccc(-c2oc3cc(O)cc(O)c3c(=O)c2OC)cc1OCc1ccccc1; pH 7.4, 37 °C).
`B7 (COMT)` has a Vmax of 0.00018 µmol/min/mg (O=c1oc2c(O)c(O)ccc2cc1-c1nc2ccccc2s1; human liver S9; pH 7.4, 37 °C).
For `B8 (HCT R356D)`, the Vmax was 35.4 µmol/min/mg (NCc1ccc(O)c(O)c1; pH 8, pseudo-first-order, together with: p-coumaroyl CoA).
With `B9 (enzyme)` the Vmax was 0.004 µmol/min/mg (CCCCCCCCCCCCCCCCCC(=O)SCCNC(=O)CCNC(=O)[C@H](O)C(C)(C)COP(=O)(O)OP(=O)(O)OC[C@H]1O[C@@H](n2cnc3c(N)ncnc32)[C@H](O)[C@@H]1OP(=O)(O)O; pH 7.4, 37 °C, apparent, not purified).
`Gcs (Leishmania donovani, UniProt Q67BG3)` has a Vmax of 85.3 µM/min/mg (Nc1ncnc2c1ncn2[C@@H]1O[C@H](COP(=O)(O)OP(=O)(O)OP(=O)(O)O)[C@@H](O)[C@H]1O; apparent, together with: L-glutamate, L-cysteine, Mg2+).
With `B10 (enzyme C48S)` the Vmax was 0.027 µmol/min/mg (Cc1nc2c(=O)[nH]c(=O)nc-2n(C[C@H](O)[C@H](O)[C@H](O)CO)c1C; pH 7.2, 37 °C, apparent).
The Vmax of `B11 (ADA)` is reported as 0.0001 µmol/min/mg (Nc1ncnc2c1ncn2[C@@H]1O[C@H](CO)C[C@H]1O; human erythrocytes; pH 5.8, 37 °C).
The Vmax of `CYP2C8 (Homo sapiens, UniProt P10632)` is reported as 0.000218 µmol/min/mg (COc1cc2c(cc1CC=C(C)C)C(=O)C[C@@H](c1ccc(O)cc1)O2; pH 7.4, 37 °C).
